Measured values of several laboratories.
Each line is one published result; not all experiments were run side by side. ± marks the error that the study gave.
Sequence of UniProt O96017 (whole entry, unmodified, looked up): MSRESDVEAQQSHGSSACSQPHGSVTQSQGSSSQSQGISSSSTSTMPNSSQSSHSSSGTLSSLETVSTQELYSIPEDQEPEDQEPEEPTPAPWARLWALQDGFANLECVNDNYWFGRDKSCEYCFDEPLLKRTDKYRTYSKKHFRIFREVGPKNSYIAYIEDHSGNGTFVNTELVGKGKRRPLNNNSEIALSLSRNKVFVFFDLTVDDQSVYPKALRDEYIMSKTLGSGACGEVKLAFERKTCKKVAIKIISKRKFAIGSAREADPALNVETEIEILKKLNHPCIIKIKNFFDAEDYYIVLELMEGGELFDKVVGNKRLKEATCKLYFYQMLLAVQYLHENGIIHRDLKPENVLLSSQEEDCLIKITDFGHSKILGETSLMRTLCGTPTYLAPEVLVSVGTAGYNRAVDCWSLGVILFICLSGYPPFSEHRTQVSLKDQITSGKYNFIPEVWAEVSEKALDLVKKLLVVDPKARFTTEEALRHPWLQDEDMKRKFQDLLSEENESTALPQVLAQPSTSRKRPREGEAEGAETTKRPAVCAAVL
Sequence of UniProt P00519 (whole entry, looked up): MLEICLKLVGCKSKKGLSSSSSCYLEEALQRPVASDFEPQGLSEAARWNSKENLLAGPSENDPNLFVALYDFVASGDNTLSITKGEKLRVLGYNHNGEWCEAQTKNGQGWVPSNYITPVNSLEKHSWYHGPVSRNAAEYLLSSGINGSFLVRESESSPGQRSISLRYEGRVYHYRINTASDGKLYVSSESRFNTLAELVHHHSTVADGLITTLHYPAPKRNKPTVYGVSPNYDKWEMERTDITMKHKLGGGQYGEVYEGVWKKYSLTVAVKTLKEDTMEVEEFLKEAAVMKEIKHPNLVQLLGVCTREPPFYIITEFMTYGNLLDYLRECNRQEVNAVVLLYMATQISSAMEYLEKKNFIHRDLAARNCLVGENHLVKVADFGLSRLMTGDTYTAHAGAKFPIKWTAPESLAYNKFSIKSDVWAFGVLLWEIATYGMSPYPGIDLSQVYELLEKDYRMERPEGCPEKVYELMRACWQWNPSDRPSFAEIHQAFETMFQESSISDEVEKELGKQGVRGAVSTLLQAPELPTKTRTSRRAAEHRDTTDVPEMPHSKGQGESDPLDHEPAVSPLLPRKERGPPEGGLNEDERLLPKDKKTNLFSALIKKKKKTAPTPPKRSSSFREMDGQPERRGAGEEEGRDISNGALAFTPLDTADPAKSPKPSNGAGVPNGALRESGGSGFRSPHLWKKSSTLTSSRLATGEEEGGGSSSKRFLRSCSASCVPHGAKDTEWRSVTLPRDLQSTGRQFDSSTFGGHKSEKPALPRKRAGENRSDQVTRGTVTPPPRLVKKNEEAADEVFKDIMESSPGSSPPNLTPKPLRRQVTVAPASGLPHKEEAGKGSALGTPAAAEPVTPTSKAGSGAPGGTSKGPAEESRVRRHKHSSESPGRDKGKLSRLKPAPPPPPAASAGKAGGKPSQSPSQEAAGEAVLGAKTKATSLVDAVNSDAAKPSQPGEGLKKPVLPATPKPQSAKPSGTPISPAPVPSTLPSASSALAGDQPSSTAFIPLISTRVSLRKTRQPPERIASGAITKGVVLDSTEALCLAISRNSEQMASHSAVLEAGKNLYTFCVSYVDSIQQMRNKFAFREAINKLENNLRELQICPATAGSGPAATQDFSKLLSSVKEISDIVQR

CCC(CO)NCCNC(CC)CO.CCOc1cc(C=NNC(=O)c2ccccn2)ccc1OC(=O)CN1C(=O)CSC1=O  MIC (Mycobacterium tuberculosis; growth in combination; H37Rv; with: reference drug at 1/2 MIC): 0.5 µg/mL
CN[C@@H]1[C@H](O)[C@H](NC)[C@H]2O[C@]3(O)[C@H](O[C@@H]2[C@H]1O)O[C@H](C)C[C@H]3NC(=O)Cc1ccc(F)cn1  MIC (Proteus mirabilis; microbial growth, broth dilution; ATCC25933): > 200 µg/mL
Cc1cc(Oc2nc(N3CC[C@@H](c4ccncc4)C3)ncc2F)[nH]n1  activity (Mycobacterium tuberculosis; non-replicating, ex vivo rabbit caseum; concentration not given, 168 h): inactive
CC(C)(C)C(=O)OCOP(=O)(OCOC(=O)C(C)(C)C)C1CCCN(O)C1=O (stereo not drawn)  CC50 (PC-3): > 100 µM
Cc1ccc2nc(C)c(C(=O)NCc3ccccc3)n2c1  MIC (Mycobacterium marinum; microbial growth; 5 days): > 128 µM
CCC(CO)NCCNC(CC)CO.CCOc1cc(C=NNC(N)=S)ccc1OC(=O)CN1C(=O)CSC1=O  MIC (Mycobacterium tuberculosis; growth in combination; 192; with: reference drug at 1/2 MIC): 0.5 µg/mL
c1ccc2c(c1)nc(CNCC13CC4CC(CC(C4)C1)C3)n2CC1CCCCC1  MIC (Enterobacter aerogenes; ATCC 35029): > 128 µg/mL
Nc1ccccc1C(=O)OCC#CCOC(=O)c1ccccc1N  MIC (Saccharomyces cerevisiae; S288c): > 128 µg/mL
CN[C@@H]1[C@H](O)[C@H](NC)[C@H]2O[C@]3(O)[C@H](O[C@@H]2[C@H]1O)O[C@H](C)C[C@H]3NC(=O)CNC(C)(C)C  MIC (Proteus mirabilis; microbial growth, broth dilution; ATCC25933): > 200 µg/mL
O=C1NC2(CC2)COc2ncc(F)cc2[C@H]2COCCN2c2ccn3ncc1c3n2  organ-to-body weight ratio (Sprague-Dawley rat, female, heart; oral, 2.5 mg/kg/day, 4 weeks, end of treatment): 0.378 ± 0.067%
COc1ccccc1-c1n[nH]c2nc(N[C@H]3CC[C@H](NS(=O)(=O)CC(C)C)CC3)ncc12  relative abundance (bead binding, competition bead pull-down, measured: LMJF.28.2750; Leishmania donovani extract; 10 µM; baseline: vehicle): 0.85
CCOc1cc(C=NNC(=S)Nc2cccc(Cl)c2)ccc1OC(=O)CN1C(=O)CSC1=O.NNC(=O)c1ccncc1  MIC (Mycobacterium tuberculosis; growth in combination; H37Rv; with: reference drug at 1/2 MIC): 0.007 µg/mL
CC[C@H](C)[C@H](NC(=O)[C@H](CCCCN)NC(=O)[C@@H](NC(=O)[C@@H](NC(=O)[C@H](CC(C)C)NC(=O)[C@H](CCCNC(=N)N)NC(=O)[C@@H](NC(=O)[C@H](CC(C)C)NC(=O)[C@H](CCCNC(=N)N)NC(=O)CNC(=O)[C@H](Cc1ccccc1)NC(=O)[C@@H](N)CCCNC(=N)N)[C@@H](C)CC)[C@@H](C)CC)C(C)C)C(=O)N[C@@H](C)C(=O)N[C@@H](CCCNC(=N)N)C(=O)N[C@@H](CCCNC(=N)N)C(=O)N[C@@H](C)C(=O)N[C@@H](Cc1c[nH]cn1)C(=O)N[C@@H](CCCNC(=N)N)C(=O)N[C@@H](C)C(=O)N[C@@H](CCCNC(=N)N)C(=O)N[C@@H](CO)C(=O)N[C@@H](C)C(=O)N[C@H](C(=O)N[C@@H](CCCCN)C(=O)N[C@@H](C)C(=O)N[C@@H](C)C(=O)N[C@@H](CO)C(=O)N[C@@H](CC(N)=O)C(=O)N[C@H](C(=O)N[C@@H](C)C(=O)N[C@@H](C)C(=O)N[C@@H](CC(C)C)C(=O)N[C@@H](C)C(=O)N[C@@H](Cc1c[nH]cn1)C(=O)NCC(=O)N[C@@H](C)C(N)=O)C(C)C)C(C)C  MIC (Cryptococcus neoformans; resazurin broth microdilution; 36 h, 35 °C): ≤ 0.064 µM
CN(C)[C@H]1C[C@@]23CC[C@@]4(O2)C(=CC[C@]2(C)[C@@H](c5ccc6ccncc6c5)CC[C@H]24)C=C3[C@@H](O)[C@@H]1O  inhibition (CHEK2 (Homo sapiens, UniProt O96017); ATP probe labelling, inhibitor, KiNativ profiling; 0.1 µM): -6.2%
O=C(CN1C(=O)CSC1=O)Oc1ccc(/C=N/NC(=O)c2ccccn2)cc1Br  MIC (Mycobacterium tuberculosis; Alamar blue; 192): 4.19 µM
CN[C@@H]1[C@H](O)[C@H](NC)[C@H]2O[C@]3(O)[C@H](O[C@@H]2[C@H]1O)O[C@H](C)C[C@H]3NC(=O)Cc1cscn1  MIC (Proteus mirabilis; microbial growth, broth dilution; ATCC25933): > 200 µg/mL
COc1ccccc1-c1n[nH]c2nc(NC3CCN(C(=O)Cc4ccc(F)cc4F)CC3)ncc12  relative abundance (bead binding, competition bead pull-down, measured: LINJ.35.3750; Leishmania donovani axenic amastigote extract; 10 µM; baseline: vehicle): 1.01
CC(C)CC(C(=O)N1CC2(CC1C#N)C(=O)Nc1ccccc12)N(C)C(=O)c1cc2c(F)cc(F)c(F)c2[nH]1 (stereo not drawn)  inhibition (Human coronavirus 229E; cytopathic effect; MRC5; 40 nM): 108%
Cc1ccc2nc(C)c(C(=O)C(=O)N(C)C)n2c1  MIC (Mycobacterium marinum; microbial growth; 5 days): > 128 µM
CN[C@@H]1[C@H](O)[C@H](NC)[C@H]2O[C@]3(O)[C@H](O[C@@H]2[C@H]1O)O[C@H](C)C[C@H]3NC(=O)Cc1cc(Cl)ccn1  MIC (Proteus mirabilis; microbial growth, broth dilution; ATCC25933): > 200 µg/mL
Cc1ccc2nc(C)c(C(=O)C(=O)NCc3ccccc3)n2c1  MIC (Mycobacterium marinum; microbial growth; 5 days): > 128 µM
CCOc1cc(C=NNC(=O)c2cccnc2)ccc1OC(=O)CN1C(=O)CSC1=O.NNC(=O)c1ccncc1  MIC (Mycobacterium tuberculosis; growth in combination; H37Rv; with: reference drug at 1/2 MIC): 0.0312 µg/mL
CN[C@@H]1[C@H](O)[C@H](NC)[C@H]2O[C@]3(O)[C@H](O[C@@H]2[C@H]1O)O[C@H](C)C[C@H]3NC(=O)Cc1ccccn1  MIC (Proteus mirabilis; microbial growth, broth dilution; ATCC25933): > 200 µg/mL
CS(C)(=O)=Nc1ccc(-c2ccc(-c3nc4cc(O[C@@H]5CO[C@H]6[C@@H]5OC[C@H]6O)[nH]c4cc3F)cc2)cc1  inhibition (EGFR (Homo sapiens, UniProt P00533, T790M); enzyme activity, inhibitor; 10 µM): -3%
CN[C@@H]1[C@H](O)[C@H](NC)[C@H]2O[C@]3(O)[C@H](O[C@@H]2[C@H]1O)O[C@H](C)C[C@H]3NC(=O)Cc1ccc(Cl)cn1  MIC (Proteus mirabilis; microbial growth, broth dilution; ATCC25933): > 200 µg/mL
O=C1NC(=O)c2c1c1cc(F)c[n+]3c1c1c2c2cc(O)ccc2[n]1[Ru-4]312([N]=C=S)[S+]3CC[S+]1CC[S+]2CC3 (stereo not drawn)  remaining activity (CHEK2 (Homo sapiens, UniProt O96017, R145W); enzyme activity; 100 nM, human enzyme, with: 10 µM ATP; baseline: untreated): 33%
CCC(CO)NCCNC(CC)CO.O=C(CN1C(=O)CSC1=O)Oc1ccc(C=NNC(=O)c2ccncc2)cc1Cl  MIC (Mycobacterium tuberculosis; growth in combination; 192; with: reference drug at 1/2 MIC): 0.5 µg/mL
CC(C)[C@H]1NC(=O)C[C@H]2/C=C/CCSSC[C@@H](NC1=O)C(=O)N[C@H](Cc1cccc3ccccc13)C(=O)NCC(=O)O2  inhibition (ABL1 (Homo sapiens, UniProt P00519); enzyme activity, inhibitor; 10 µM): -1.2%
CCc1ccn2c(C(=O)NCc3ccc(C)cc3)c(C)nc2c1  MIC (Mycobacterium marinum; microbial growth; 5 days): > 50 µM
CC[C@H](C)[C@H](NC(=O)[C@H](CCCCN)NC(=O)[C@@H](NC(=O)[C@@H](NC(=O)[C@H](CC(C)C)NC(=O)[C@H](CCCNC(=N)N)NC(=O)[C@@H](NC(=O)[C@H](CC(C)C)NC(=O)[C@H](CCCNC(=N)N)NC(=O)CNC(=O)[C@H](Cc1ccccc1)NC(=O)[C@@H](N)CCCNC(=N)N)[C@@H](C)CC)[C@@H](C)CC)C(C)C)C(=O)N[C@@H](C)C(=O)N[C@@H](CCCNC(=N)N)C(=O)N[C@@H](CCCNC(=N)N)C(=O)N[C@@H](C)C(=O)N[C@@H](Cc1c[nH]cn1)C(=O)N[C@@H](CCCNC(=N)N)C(=O)N[C@@H](C)C(=O)N[C@@H](CCCNC(=N)N)C(=O)N1CCC[C@H]1C(=O)N[C@@H](C)C(=O)N[C@H](C(=O)N[C@@H](CCCCN)C(=O)N[C@@H](C)C(=O)N[C@@H](C)C(=O)N[C@@H](CO)C(=O)N[C@@H](CC(N)=O)C(=O)N[C@H](C(=O)N[C@@H](C)C(=O)N[C@@H](CCC(=O)O)C(=O)N[C@@H](CC(C)C)C(=O)N[C@@H](C)C(=O)N[C@@H](Cc1c[nH]cn1)C(=O)NCC(=O)N[C@@H](CCC(=O)O)C(N)=O)C(C)C)C(C)C  MIC (Cryptococcus neoformans; resazurin broth microdilution; 36 h, 35 °C): ≤ 0.062 µM
